Results gathered from unrelated publications.
A part holds a random share of what one study measured.

Study 1
Target: RING finger protein unkempt homolog, zinc fingers 1-6, GST-SBP tag (UNK, Homo sapiens, UniProt Q9C0B0, residues 30-357)
Method: RNA Bind-n-Seq
Molecule type: RNA
Medium: in vitro
Tested at: not given
Setting: RNA with constant flanks, human and mouse sites, ends assumed
Reference: input RNA pool
Direction: higher = stronger binding
All sequences stand within: GGGAGUUCUACAGUCCGACGAUC … CAACAGAGGAUUGAGCAUCA
Target sequence (chain): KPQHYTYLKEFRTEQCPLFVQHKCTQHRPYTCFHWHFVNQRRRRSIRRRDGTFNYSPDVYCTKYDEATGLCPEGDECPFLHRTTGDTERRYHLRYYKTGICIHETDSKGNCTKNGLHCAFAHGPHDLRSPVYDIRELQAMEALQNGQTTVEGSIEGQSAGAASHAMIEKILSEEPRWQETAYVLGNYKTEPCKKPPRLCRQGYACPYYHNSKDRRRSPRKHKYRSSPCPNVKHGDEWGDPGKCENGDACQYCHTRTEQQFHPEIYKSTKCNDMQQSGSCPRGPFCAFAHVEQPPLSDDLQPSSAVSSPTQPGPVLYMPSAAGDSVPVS
Oligonucleotide	bound/input enrichment [ratio]
ACAAAAACAGUCAUUAAAGAAGGUGAAGAACAACUUCAGACUCAGCAUCAGAAAACUUUUAUAGGAAAAAUUCCAAUUAUGUUGCGGUCAACUUACUGCCUUUUGAAUGGCUUGACAGAU	0.263
GUACAGACUGCCUCAAAACAGGUUGAUGGUGAUUACGUCGUGUCUGAAUGGAGUGAGAUUAUAGAAUUCUGUACAGCAGAUUACUCCAAAGUUCAUCUAACACAGCUGCUGGAGAAGGCU	0.23
CUUAUGCCCUCCAGUCUGCAGACCCCUCAGCCCCAGGAGCAGAAUGGGAUUUUAGACUGGCUUAGGAAGCUGCGCUUGCACAAGUAUUACCCUGUCUUUAAACAGCUCACCAUGGAGAAG	0.227
UGCUAAAUUUGCAGCUUGCUAAUUCCUCCUGCUUUCUCCUUCCUUCCUUCUUCUGGCUCACUCCCUGCCCCGAUACCAAAGUCUGGUUUAUAUUCAGUGCAAAUUGGAGCAAACCCUACC	0.307
UUUUUCUUUUUUUUUUUUUAAUUUUUCCCCCCAACCAUCGUGAUUUGUCUUUUCAUGCAGAUUAGUUAGAAUUCACUGCCAGGUUUCUUCUGCCCACCAAAAUGAUCCAGUCUGGAAUAA	13
GGAGUCGGGAGGCCUGAGUGUUCCUUCCAGCAUGUCGGAGGGGGAGUCCCAGACAGUACUUAGCAGUGGCUCAGACCCAAAGGUAGAAUCCUCAUCUUCAGCUCCUGGCCUGACAUCAGU	0.206
UUCCUUACCCGGCCUAAGGUCCCUGUCUUGCAGCUGGAUAGUGGCAACUACCUCUUCUCUGCUAGUGCAAUCUGCCGAUAUUUUUUUCUGUUAUGUGGCUGGGAACAAGAUGAUCUCACC	0.508
UACCAGGCCAUCCGUAGUGGGGAAUGCCCCGCGGCCCUUGUGGGUGGGAUCAACCUGCUCCUGAAGCCGAACACCUCUGUGCAGUUCAUGAAGCUGGGCAUGCUCAGCCCGGACGGCACC	0.0435
GUAGAAUUCUGUCAUCCUGAAGACCAGCAGCUUCUAAGAGACAGCUUCCAACAGGUAGUGAAAUUAAAAGGCCAAGUGCUGUCUGUCAUGUUCCGGUUCCGGUCUAAGAACCAAGAAUGG	1.32
GUGGGAAAAACAACCUGGCAAAACAAAGAAUCUAAAGGAGAGACAGGGAAGAGAAGUAAGGAAGGUCAUAGUUUGGAGAUGGAGAAUGAGAAUCUUGUAGAAAAUGGUGCAGACUCCGAU	0.861
UGCUGUAGGUUAUUUUAUAAAGAUGCCAAAGGAAACAAGUUUUUCUUUAUUUAUUUUAAGUAGCUAAAACUUUGUACUGUUCUUUAUAUUCUCAGAUAAGAAGGAAAUGUGUGAAAUAAC	0.414

Study 2
Target: RNA binding protein fox-1 homolog 2, RRM domain, GST-SBP tag (RBFOX2, Homo sapiens, UniProt O43251-10, residues 100-194)
Method: RNA Bind-n-Seq
Molecule type: RNA
Medium: in vitro
Tested at: 365 nM
Setting: natural RNA segment, single round, ends assumed
Reference: no-protein control
Direction: higher = stronger binding
All sequences stand within: GGGAGUUCUACAGUCCGACGAUC … UGGAAUUCUCGGGUGCCAA
Target sequence (chain): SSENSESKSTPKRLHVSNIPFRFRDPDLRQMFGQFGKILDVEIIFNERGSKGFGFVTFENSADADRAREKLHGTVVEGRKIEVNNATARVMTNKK
Oligonucleotide	RBNS enrichment (R)
UGUCCCCGCUGCCCAGCACCCUCUCUCGGGUCGGCUCUACCACCCCUCUCUUUCCUCCAAGCUAUUUUCUUCCUGGUUGUGGGGCGCGAAGGGCACACUGUAAAGUUGGG	0.467
UAAAAUAUAUUUUAACCAUCCAGAGAUGGUGUUGAAUCCUUCAACAAAUGUGUCAUUCAAAACAGUAAUUAGGGAAAUCCCACAGAUGAAAAAUGCCUUAGUGAUAAGCU	0.488
GCUGUGUUCUGUGACUCAAUUGUAUCGUGUUACUCUCAGUACAGACCGUCUCCUCUACGUGACCGUAUAAUGUUUUUUCUCCUCUUGUAGUCUUUAUGGUGUGUCUUUAU	0.648
CGCCGAGGUCGGAAGGAGGGCACCUCAGGCAAGAGGAGACUGAGACUUUAGAGCCAAGGCCUGGCAGUCCUGCAGCCAGCCUCUGCUCGCAGCCGCAGACGGUCUGGACA	0.433
UCAUCCAUACUGGGAAUUGUCUUGUUUUGAUACUGUGUUUUUCUGUGUUGCUUAAACUUCAAGAAUUACAAAUGUGGACCUGGCACAUGCUGUGGUUUAACAUUGACACU	0.637
AGAGGCUGGCUACUCCUAGUUCCUGUGCUUCUUCCCAUCUCCUGUGAUCCCCCUCUCCCAUUUAUUCCCUUGAAGGUGCCCUUGUAUUCCUAAUCUGAUCUAAGAAGCUG	1.27
GUUGAUGCAUUUUUGUACUUAGCUGUACUGUGUGAUAUUUUUCAUUAUUUUAGGAUGCCAACAUGAGACCUGUAAUAAAAUAUGUAAUGGGGUUGAAGGCUGGGGAGGAG	1.12
UGGCUUCAGGCCGAGCGUGGAGUAGCUCUGCAGUCUGCAUGAAUCGGCCUUUGAUCUGGCCAAGUCUUAGAGAAUGUUGUAGAUGGGGGUUAAGAGAACCAUUUAAAGUA	8.62
AUGUAUAAUACUAUUAAAAUAUCCCAUGCUUUGAUCAGGUGGUACAUCAAUAAAAUUUUAAAAAGUAUAGCUGUUUCUAAUGUGUAGUAAUUUAAAAAACAUAUAUCAAG	0.763
UGAAAGGUCCUGGGGAGAGCUUCGGGGCUCCCCCGAUGCCCAUCUCCAAUGCCAAUUCUUUGGUUUCUUCUUCUUGGCAGUGUUGAAGCUAGAACUCAGGGCGCUGAAUA	0.311
UGCACUGUGGGUGGCACUAUUUAUUCCUGUGCGUCAUCUGGAAGCCUCACGGAUACAUCCAGCUAUGUGCUUGUCUGGUAGCCUUUGCGUUUAACAAACUAGCAUGAGGC	0.381
CACCCCAUAGUGGGGGACUGGAGUCGCCUUGGUGCUCAUUCCCUGAGCCCCCCAAUCCUCCUCUGUCUUCCAGCCAACCCACAAAGCUGAAUAUAUGCAAUAUCCGUCCG	0.435

Study 3
Target: Histone acetyltransferase KAT6A, both winged helices, GST fusion (KAT6A, Homo sapiens, UniProt Q92794, residues 1-181)
Method: protein binding microarray
Molecule type: double-stranded DNA, one strand shown
Medium: in vitro
Tested at: not given
Setting: 8-mer, flanks averaged, mean of 2 arrays, mostly near background
Reference: not given
Direction: higher = stronger binding
Residues (chain): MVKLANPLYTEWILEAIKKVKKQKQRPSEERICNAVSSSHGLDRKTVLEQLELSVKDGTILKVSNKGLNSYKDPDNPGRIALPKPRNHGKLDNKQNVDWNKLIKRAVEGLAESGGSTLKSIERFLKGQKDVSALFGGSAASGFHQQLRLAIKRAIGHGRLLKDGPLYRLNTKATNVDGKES
Oligonucleotide	E-score
AGATCGTG	-0.146
GCGAGTCC	0.133
AACCCGGA	0.106
ACAGTATC	-0.108
CGCGTTAA	0.274
GGCCGGGA	0.236
CCCCAGCG	0.0615
ATGGGCAC	-0.024
AGTGTATC	-0.14
CTGAATAC	-0.0587
CTGCTAGC	-0.104
ACAGTAAG	-0.13
ATTGTCGC	0.032
ACGTGTGC	-0.109
CAAGACAA	-0.0575
CCGTGTGA	0.157
ACGTCATG	0.0683
CTGATTAC	0.0375
CGATGACG	0.093
ACTCCGGG	0.0739
CCATCTCA	-0.153
CCAGTGTC	0.0175
ATAGAGAC	-0.138
ATGATGCC	-0.0175
TAGGGCAA	-0.115

Study 4
Target: Interferon regulatory factor 7, full length, phosphomimetic (IRF7, Homo sapiens, UniProt Q92985, residues 1-503, S471D/S472D/S475D/S476D/S477D/S483D/S484D/S487D)
Chain of UniProt Q92985 (whole entry, unmodified, looked up): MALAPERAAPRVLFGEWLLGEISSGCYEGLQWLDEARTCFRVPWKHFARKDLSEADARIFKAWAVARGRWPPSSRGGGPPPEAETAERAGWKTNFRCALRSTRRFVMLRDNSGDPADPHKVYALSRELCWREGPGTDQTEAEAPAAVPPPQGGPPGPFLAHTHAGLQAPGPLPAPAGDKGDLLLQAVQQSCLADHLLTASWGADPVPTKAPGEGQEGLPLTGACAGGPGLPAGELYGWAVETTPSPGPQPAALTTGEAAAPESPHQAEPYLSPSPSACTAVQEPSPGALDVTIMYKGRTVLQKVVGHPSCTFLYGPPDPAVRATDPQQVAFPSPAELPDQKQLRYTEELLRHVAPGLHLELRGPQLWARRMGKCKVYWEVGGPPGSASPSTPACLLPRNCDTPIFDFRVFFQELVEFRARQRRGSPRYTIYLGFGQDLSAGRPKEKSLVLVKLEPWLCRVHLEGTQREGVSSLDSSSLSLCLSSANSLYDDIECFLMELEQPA
Method: protein-binding microarray
Molecule type: double-stranded DNA, one strand shown
Medium: in vitro
Tested at: 2200 nM top
Setting: 60-bp whole probe
With: salmon DNA 0.4 mg/ml
Reference: random background probes
Direction: higher = stronger binding
All sequences stand within: GCCTAGCAC … GTCTTGATTCGCTTGACGCTGCTG
Oligonucleotide	fitted relative affinity
TTAGGCCTGGGTCTCGGTTAGTGCTAG	-0.661 z-score
TTAGGTTTGGACTATCGGTTAGTGCTA	0.39 z-score
TTAGGTTTTGACTATCGGTTAGTGCTA	0.668 z-score
TTAGATTTCGGGTATCCATTAGTGCTA	3.12 z-score
TTAGATTTCAGACTGGATTCGTGCTAG	0.407 z-score
TTAGGTATCGGTCTCGCTTAGTGCTAG	0.776 z-score
GACGGTTTCCTTTTCGTGACGTGCTAG	5.48 z-score
TTAGAACTGGAGTATCGATTAGTGCTA	-0.551 z-score
TTAGATATCGGGTATCGTTTAGTGCTA	0.582 z-score
TTAGGTAACGGGTTTCGGTTAGTGCTA	3.03 z-score
GACGGACTAGGGTTTCGGGACGTGCTA	0.653 z-score
AAGTTTCTCCTTTCGGAATAGTGCTAG	5.52 z-score
CTTCATGTTTTTTTCTACTTGTGCTAG	2.88 z-score
GACGGACTGCTTTGCCTGACGTGCTAG	0.0853 z-score
TTAGGTTTGCTTCTCCTTTAGTGCTAG	1.63 z-score
TCACCTTCACCTCTCTGACTGTGCTAG	2.3 z-score
TTAGAACTGGGGACTGGGTTAGTGCTA	-0.552 z-score
CAGGGAATTCACCTGCTGACGTGCTAG	-0.348 z-score
GACGGTCTGCTACTGCTGACGTGCTAG	-0.0565 z-score

Excerpt of the above (study 2):
Oligonucleotide	RBNS enrichment (R)
UCAUCCAUACUGGGAAUUGUCUUGUUUUGAUACUGUGUUUUUCUGUGUUGCUUAAACUUCAAGAAUUACAAAUGUGGACCUGGCACAUGCUGUGGUUUAACAUUGACACU	0.637
AGAGGCUGGCUACUCCUAGUUCCUGUGCUUCUUCCCAUCUCCUGUGAUCCCCCUCUCCCAUUUAUUCCCUUGAAGGUGCCCUUGUAUUCCUAAUCUGAUCUAAGAAGCUG	1.27
GUUGAUGCAUUUUUGUACUUAGCUGUACUGUGUGAUAUUUUUCAUUAUUUUAGGAUGCCAACAUGAGACCUGUAAUAAAAUAUGUAAUGGGGUUGAAGGCUGGGGAGGAG	1.12
UGGCUUCAGGCCGAGCGUGGAGUAGCUCUGCAGUCUGCAUGAAUCGGCCUUUGAUCUGGCCAAGUCUUAGAGAAUGUUGUAGAUGGGGGUUAAGAGAACCAUUUAAAGUA	8.62
AUGUAUAAUACUAUUAAAAUAUCCCAUGCUUUGAUCAGGUGGUACAUCAAUAAAAUUUUAAAAAGUAUAGCUGUUUCUAAUGUGUAGUAAUUUAAAAAACAUAUAUCAAG	0.763
UGAAAGGUCCUGGGGAGAGCUUCGGGGCUCCCCCGAUGCCCAUCUCCAAUGCCAAUUCUUUGGUUUCUUCUUCUUGGCAGUGUUGAAGCUAGAACUCAGGGCGCUGAAUA	0.311
UGCACUGUGGGUGGCACUAUUUAUUCCUGUGCGUCAUCUGGAAGCCUCACGGAUACAUCCAGCUAUGUGCUUGUCUGGUAGCCUUUGCGUUUAACAAACUAGCAUGAGGC	0.381
CACCCCAUAGUGGGGGACUGGAGUCGCCUUGGUGCUCAUUCCCUGAGCCCCCCAAUCCUCCUCUGUCUUCCAGCCAACCCACAAAGCUGAAUAUAUGCAAUAUCCGUCCG	0.435
